Published values from different studies.
± marks the error that the study gave.

Structure (SMILES)	cell line	assay	setting	scale	quantity	value
OC[C@H]1O[C@@H](OCCCCCCCCCCC(F)(F)C(F)(F)C(F)(F)C(F)(F)C(F)(F)C(F)(F)C(F)(F)C(F)(F)F)[C@H](O)[C@@H](O)[C@H]1O	B16-F10	cytotoxicity, MTT	24 h		EC50	> 250 µM
Cc1ccc(C(=O)c2sc(S)c(-c3nc4ccccc4s3)c2N)cc1	HEp-2	cytotoxicity	72 h		maximum non-toxic concentration	90 µg/mL
Cc1ccc(OCC(=O)N(Cc2cccs2)c2ccn[nH]2)cc1	human peripheral blood lymphocytes	item: mitotic index	3 h, with S9		cytotoxic concentration	5 µg/mL
CC(=O)N[C@H](C(=O)N[C@H](C(=O)N[C@@H](CCCNC(=N)N)C(=O)N1Cc2ccccc2C[C@H]1C(=O)N[C@@H](Cc1ccccc1)C(N)=O)C1CCCCC1)C(C)C	human PBMC	Bio-Plex multiplex, item: IL-9	250 µg/mL, 24 h		cytokine level	16 ± 8.1 pg/mL
Cc1ccc(C(C)C)cc1.[Cl-].[Cl][Ru+].[Ru+].c1ccc(-c2cn(CCCCOc3ccccc3-c3nc4ccccc4s3)nn2)nc1	MCF7	annexin V/PI flow cytometry	4 µM, 24 h		viable cells	75.2%
Cc1cc(C#N)cc(C)c1Oc1nc(NC2CCN(Cc3ccc(S(N)(=O)=O)cc3)CC2)nc2ccccc12	TZM-bl	cell growth or viability, XTT	96 h		CC50	> 0.23 µM
OC[C@H]1O[C@@H](n2cnc3c(O)ncnc32)[C@H](F)[C@@H]1O	SkMC	sulforhodamine B	11 days, glucose medium		CC50	> 250 µM
O=c1c(Br)c2oc3c(CN(Cc4ccccn4)Cc4cnccn4)c(O)ccc3nc-2c2ccccc12	rat neural stem cells	colocalisation with ER-Tracker			Pearson's coefficient	0.699
CC/C(=C(\c1ccc(O)cc1)c1ccc(OCCN(C)CCOCCOCCN(C)CCOc2ccc(/C(=C(/CC)c3ccccc3)c3ccc(O)cc3)cc2)cc1)c1ccccc1	U2OS transfected with ERβ		10 µM, cytotoxicity		cell density	78%
COc1ccc(S(=O)(=O)NCc2c[nH]nc2-c2cccs2)cc1	HCT-8		100 µM, 24 h		growth inhibition	~15%
Cc1nn(-c2ccc(S(=O)(=O)N[C@H](CO)CC(C)C)cc2)c2nn3nnnc3nc12	human peripheral blood lymphocytes	DNA damage, alkaline comet	2 µM, 24 h		tail DNA	27.8 ± 3.12%
CNc1c(C)n(C)n(-c2ccccc2)c1=O	HepaRG PXR knockout	item: CYP2C9	300 µM, 72 h	reference: untreated	mRNA level	increased
CC(=O)[O-].F[P-](F)(F)(F)(F)F.[Ni+2].c1ccc(CN2CCN3CCN(CC2)CCN(Cc2ccccc2)CC3)cc1	THP-1	cell growth or viability			IC50	> 20 µM
CC[N+]1=C(/C=C/c2ccc(OC(C)C)cc2)C(C)(C)c2c1ccc1ccccc21	BEAS-2B		5 µM, 30 min, 37 °C		cell membrane permeability	18.2%
C[C@@H]1O[C@@H](O[C@H]2[C@H](O[C@H]3CC[C@@]4(C)C(CC[C@]5(C)C4CC=C4C6CC(C)(C)CC[C@]6(C(=O)O[C@@H]6O[C@H](CO)[C@@H](O)[C@H](O)[C@H]6O)CC[C@]45C)[C@]3(C)CO)OC[C@H](O)[C@@H]2O)[C@H](O)[C@H](O[C@@H]2OC[C@@H](O)[C@H](O)[C@H]2O)[C@H]1O (stereo partly drawn)	HepG2	cell growth or viability, CCK-8	10 µM, 24 h		viability	96.3%
Cc1cc(C#N)cc(C)c1Oc1nc(NC2CCN(Cc3cccc(C(N)=O)c3)CC2)nc2ccccc12	TZM-bl	cell growth or viability, XTT			CC50	> 0.247 µM
OCC1CSC(c2ccc(O)cc2O)S1 (stereo not drawn)	B16-F10	MTT	up to 25 µM, 24 h		cytotoxicity	not toxic
O=C(Cc1ccc(OCc2ccccc2)cc1)NC1(C(=O)O)CCN(C(=O)c2ccc(-c3cccc(Cl)c3)cc2)CC1	BEAS-2B	cytotoxicity	3 days		IC50	> 100 µM
